Measured values collected from several papers.
A part holds a random share of what one study measured. Changes are numbered by the printed parent chain.

Series 1
Target: Interferon regulatory factor 5, full length, phosphomimetic (IRF5, Homo sapiens, UniProt Q13568-2, residues 1-514, S451D/S453D/S456D/S462D)
Method: protein-binding microarray
Molecule type: double-stranded DNA, one strand shown
Medium: in vitro
Concentration: 940 nM top
Notes: 60-bp whole probe
Together with: salmon DNA 0.4 mg/ml
Relative to: random background probes
Reading: higher = stronger binding
Quantity: fitted relative affinity
Shared flanks, not repeated: GCCTAGCAC … GTCTTGATTCGCTTGACGCTGCTG
GACGAACTGAGACTGGACACGTGCTAG: -0.22 z-score
GCTTTTATGGTATTTTTTTCGTGCTAG: 1.27 z-score
TGAGGTTTCGACTTTCGGTTAGTGCTA: 7.1 z-score
CCTCATCTTCCTCTGCCACAGTGCTAG: 1.32 z-score
TCATTTCTATCTCTGTTACTGTGCTAG: 1.96 z-score
TTAGATTTCACTCTCGATTAGTGCTAG: 4.58 z-score
GCCGGTTTCGACACTGGGGACGTGCTA: 8.53 z-score
TTAGGTATCGCGACTGGGTTAGTGCTA: 0.885 z-score
TTAGAACTGAATTTCGATTAGTGCTAG: 0.522 z-score
GACGGTATCCCACTGCTGACGTGCTAG: -0.065 z-score
CTGAATGTCCTCCTCTCTCTGTGCTAG: 0.232 z-score
GACTGTTTCGACTTTCGGGACGTGCTA: 3.71 z-score
TTAGGTCACGGTTTCGGTTAGTGCTAG: 6.45 z-score
AACGGTATCGGGACTGGGGACGTGCTA: 3.24 z-score
GACGAACTGAGTCCCGAGACGTGCTAG: -0.21 z-score
GACGGTTTCGCGACTGGGGACGTGCTA: 2.55 z-score
AGTGGCCCAGGGCATCCCCTGTGCTAG: -0.973 z-score
GACGGTATCGGTAACGGGACGTGCTAG: 7.04 z-score
TTAGATATCGGGTAACGATTAGTGCTA: 0.299 z-score
TTAGGGTTCGACTTTCGGTTAGTGCTA: 3 z-score
GACGGTATCAGTCTCGGGACGTGCTAG: 3.27 z-score
ATAGGTATCGACTTTCGGTTAGTGCTA: 5.48 z-score

Series 2
Target: RNA binding protein fox-1 homolog 2, RRM domain, GST-SBP tag (RBFOX2, Homo sapiens, UniProt O43251-10, residues 100-194)
Method: RNA Bind-n-Seq
Molecule type: RNA
Medium: in vitro
Concentration: 365 nM
Notes: natural RNA segment, single round, ends assumed
Relative to: no-protein control
Reading: higher = stronger binding
Quantity: RBNS enrichment (R)
Shared flanks, not repeated: GGGAGUUCUACAGUCCGACGAUC … UGGAAUUCUCGGGUGCCAA
Construct (chain): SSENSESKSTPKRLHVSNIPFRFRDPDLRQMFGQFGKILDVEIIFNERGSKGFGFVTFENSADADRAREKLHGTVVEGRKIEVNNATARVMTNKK
CAAAAAUCAGCUUUUGCAGGUCUUUAUUUCUUCUGUAAAACAGUAGGUAACUUUUCCUAGGUUUCACUCUUUUUAGUGUACUAGAUCCAGAAACUUAGUGUAAUGCCCUG: 0.286
AAUUAAUAACGAGCCUAGUUUAGGAAAAAGCUGCUUAAAACUGUGGCUCUAAGAGAGUAAUCAUAAAAUACCUUAGAUAAAAUUGCACUAUGGAAUUUUCAUUGAGUAUG: 0.713
CCAAACAUGUCCAGUCCUCUUCUUCCCUCUGCUGGAACCUUUGGGGACACUCAAGGGUACAGUUUGACACUGAUCUGGUCCAUGAGGCUGCCCAGAGAAAGCACUGCUUC: 0.397
CUGCCCCACAGCAUCUGUGCCAUGCAAUGAGGGCUUUGGUUCCUGGCUUCUGGGAGCCUUUUGACAGCUGGUCCCUGCCUCGGUUGAUUGUGCAUGGAACUAAAAUGUUA: 1.13
GAGAUGCCAGCAGCCUCUGUCGCCCUUAGUCAUAUAACCAAAAUCCAGACCUUAUCCACAACCCGGGGCUUGGAAAGGAAGGUAUUUUGGAAUCACACCCUCCGGUUAUG: 0.588
CAUGGGCCAGUGGGACUGGAAGUGACCUGUACAAGUGAUGCAGAAAGGAGGGUUUCAAAGAAAAAGGAUUUUGUUUAAAAUACUUUAAAAAUGUUAUUUCCUGCAUCCCU: 0.393
GGACACCUGAGUCUCUUCCUCUUGUUCCUUCCACUAUGAGGCUCUGAGCCUCUCUGUGCCUUGGGCCCUAAAGCCCCAUGUGUAGUAUAGAGCAAAGGUGAUUCCUGGUG: 0.153
CCCCACCUCUGCUGCCUCCCUCUGCUGUCACCUUGCUCAGCCAUCCCGUCUUCUCCAACACCACCUCUCCAGAGGCCAAGGAGGCCUUGGAAACGAUUCCCCCAGUCAUU: 0.797
ACGUCUUAUUGUGGUAGGAUCAGCCCUCAUUUUGUUGCUUUUGUGAACUUUUUGUAGGGGACGAGAAAGAUCAUUGAAAUUCUGAGAAAACUUCUUUUAAACCUCACCUU: 0.626
CCGCUGGGUGGCAGAAGCCAAAAGACCUUAUUAACGAGGCUAUAUUUUUCUUAACUUGAUCUGCAAUCCAGAAUUAGACCACAAUGCACCUUUGGUGGUAUCCAUAUAGG: 0.787
CUUCCAGAUUUUCUUUGGGGGUUAGAAGGUCGGAUGUGGAGUUGACACUUGUUAGUCUCUGUGAGCCCAGGCCUGAGCUGGGGGAAAGUAGGAAGAUUUGGGCAUAUAUG: 1.06
GGCAUCUUUGGAUUCAGGAGCUAACCAGGCUCUUCCUCGGGGGCGGGGGAGAUUCUGACUCUUAAUCUGUAUUGUGAGAAAAUCCCAGCAAGUUCCAUGAUAUUAAAUCC: 0.601

Series 3
Target: RING finger protein unkempt homolog, zinc fingers 1-6, GST-SBP tag (UNK, Homo sapiens, UniProt Q9C0B0, residues 30-357)
Method: RNA Bind-n-Seq
Molecule type: RNA
Medium: in vitro
Concentration: not given
Notes: RNA with constant flanks, ends assumed
Relative to: input RNA pool
Reading: higher = stronger binding
Quantity: bound/input enrichment
Shared flanks, not repeated: GGGAGUUCUACAGUCCGACGAUC … CAACAGAGGAUUGAGCAUCA
Construct (chain): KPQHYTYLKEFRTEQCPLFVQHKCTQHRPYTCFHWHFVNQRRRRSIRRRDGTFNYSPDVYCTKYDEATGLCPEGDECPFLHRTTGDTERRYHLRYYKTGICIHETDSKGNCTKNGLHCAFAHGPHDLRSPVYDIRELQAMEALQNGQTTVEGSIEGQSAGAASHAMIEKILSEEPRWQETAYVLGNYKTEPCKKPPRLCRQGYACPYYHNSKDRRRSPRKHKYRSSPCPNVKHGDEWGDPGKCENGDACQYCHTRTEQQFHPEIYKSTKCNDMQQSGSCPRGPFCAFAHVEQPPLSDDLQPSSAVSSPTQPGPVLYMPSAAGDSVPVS
AGAACUGACUCUCUUCCGUGGAAGAGAUGAACUGAGGAGAACCACCUCUUUUUUACCGAUGACUUUAUUUCUAAAUUAUGACCAAAAGAUAUUUUGCUAUUUCUUUCUUUAUAUAUGGAC: 0.584 ratio
UGCUGUGCGCUCCUGGGAGCUUGACGGAGGCUAAGCCUCCACGGUGCUGUGAGGGGUCCACCGUAUUUUUUUGCUGCCUCUGAGUCCCCAAGGCCUUUAAGCAGAAGUGACAGUAGAUGC: 0.158 ratio
UGUUGUGACCCAUUUAACAUACACAAGAAAUUAGCCAAAAAAAAUUUGCAUGUAAUUGACUCCGAUGAUGCCACUUUUCUGAGUGCUAAAUUUGGAAGACAGCUUGUACCUGGUUGGAAG: 2.61 ratio
ACAAUUGGUUUUAACGUGGAAACUGUAGAAUAUAAAAAUCUAAAAUUCACUAUUUGGGAUGCCGGUGGAAAACACAAAUUAAGACCAUUGUGGAAACAUUAUUACCUCAAUACUCAAGCU: 0.261 ratio
AUGAAGCCAUUAGACUAAUUGCUUGCCAUCAUGAGCAGAAGCAAACGUGACAACAAUUUUUACCGUGCCGAGAUUGGAGAUUCUACAUUCACAGUCCUAAAACGAUACCAGAAUUUAAAG: 0.248 ratio
AGUAUUAAAAAGAUCAUACAUGUGCUGGAGAAGGUGCAGUUUCUUGAGCAAGAAGCCGAAGAGUUUGCCGGAAAAAAGACAGACAAAGCGUAUUGGCUUCUGGAAGAAAUGCUGACAAAG: 0.196 ratio
CUAGAGGAUUACUACCAAAGUGGAAGAAUGCUUUUGCGAAUGUCUCAAGCUCUGGGUCGAACCGUUUUGGCUGGGCGUGAAAUGACUAGAUUGGCCGGUUUUACUGCUCGGAUUACAGAA: 0.168 ratio
GCGGUCCCUACAGUCCUGGUGACUCCCUUAGGUGCCCUUGGAGUACCGUUUGGGUCCAUUUCCGCUUCUUACCUUCUGAAGGAAAAGCUCAACAUCUUGGGCAAGUUGGGCUGUCUGCUA: 0.581 ratio
CCCUUGCCUCACCUGUAUUGCUGUGGAUGUGUUUUGUGGGUUUUUCAUUCGAUUUUACAAAACCGGGAAAGGCACUUCCAGUUGUAUUUAGUAGGCAGUUGUUGUGAAUCAUUUUUUUCU: 0.165 ratio
GAAGACUUUGGUCCAGAAAAGAAAACCAGUGAUGUUGAAACCAUGAGUUCUCAAUCAGCUCCCGCUUUGGAUGAAAGGAAAUUGGGAGGAGAUGUAUCUCCAACACAAAUAGACGUCAGU: 0.187 ratio
GGGCCUUGGAAGCUGACGGCGUCCAAGACCCACAUCAUGAAGUCUGCGGAUGUGGAAAAGUCCGCUGACGAGCUGCACAUGCCAUCCCUCCCUGAAAUGAUGUUUGGAGACAACGUUCUA: 0.0602 ratio

Series 4
Target: FOSB, bZIP domain (human)
Method: DHFR protein complementation
Medium: yeast
Notes: single substitutions, most at no-binding floor
Relative to: wild-type JUN-FOS pair
Reading: higher = stronger binding
Quantity: binding fitness
Starting sequence: JUN, bZIP domain (human); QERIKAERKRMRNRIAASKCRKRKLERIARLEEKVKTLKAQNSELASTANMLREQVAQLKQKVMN
L38S: -1.21 natural log
E32P: -1.23 natural log
L52G: -1.47 natural log
L38W: -1.35 natural log
T37P: -1.22 natural log
L38K: -1.21 natural log

Series 5
Target: PABPC1L2, full length, GST fusion (mouse, UniProt A0ABA7IW68)
Method: RNAcompete
Molecule type: RNA
Medium: in vitro
Concentration: 20 nM
Notes: 7-mer, probes averaged, single round
Relative to: mean of 7-mers
Reading: higher = stronger binding
Quantity: 7-mer Z-score
Construct (chain): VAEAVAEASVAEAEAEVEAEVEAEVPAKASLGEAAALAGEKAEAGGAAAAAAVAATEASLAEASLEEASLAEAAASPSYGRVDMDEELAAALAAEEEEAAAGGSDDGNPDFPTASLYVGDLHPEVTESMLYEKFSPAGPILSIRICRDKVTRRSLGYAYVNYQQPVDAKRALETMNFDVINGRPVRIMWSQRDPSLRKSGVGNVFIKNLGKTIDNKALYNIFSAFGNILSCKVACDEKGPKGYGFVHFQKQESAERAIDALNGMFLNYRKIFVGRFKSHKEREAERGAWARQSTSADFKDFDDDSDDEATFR
UGAUCCC: -0.362
CCACCCC: -0.429
ACCGUCA: -0.18
UGUUGAU: -0.188
UUUCCUA: -0.287
AGCGGAC: 0.0823
CGUCUAC: -0.313
UCUGAGA: -0.0772
GGGUGCU: 0.2
UCAUCUC: -0.287
UAUGUGU: -0.376
UUUCAAC: -0.0772
GGUUAAC: -0.112
ACGUUUC: -0.396
CAGAGAC: 0.236
UAACUUU: -0.161
AGAAGGC: 0.117
CCCCUGG: -0.398
GGUACCU: -0.336
UAUUAGU: -0.36
AUACAUU: 0.037
AUGGCGU: -0.0428
UGGGGGA: 0.506
AUCUCCU: -0.327
UCCCUUC: -0.354

Series 6
Target: Histone acetyltransferase KAT6A, both winged helices, GST fusion (KAT6A, Homo sapiens, UniProt Q92794, residues 1-181)
Method: protein binding microarray
Molecule type: double-stranded DNA, one strand shown
Medium: in vitro
Concentration: not given
Notes: 8-mer, flanks averaged, mean of 2 arrays, mostly near background
Relative to: not given
Reading: higher = stronger binding
Quantity: E-score
Construct (chain): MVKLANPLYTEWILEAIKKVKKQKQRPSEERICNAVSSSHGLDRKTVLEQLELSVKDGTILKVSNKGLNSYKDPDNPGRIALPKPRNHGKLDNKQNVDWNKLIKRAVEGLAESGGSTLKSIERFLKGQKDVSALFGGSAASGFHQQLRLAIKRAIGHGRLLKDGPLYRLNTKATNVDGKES
CTGGACAA: -0.135
ACTATAAC: -0.065
GGTGCCAA: -0.193
ATATTACA: -0.0381
AAAAGGGG: -0.159
GAATTAGA: -0.182
CCGGGAAG: 0.166
ATAACGAG: -0.162
AGCACCCG: 0.221
AACAATAC: -0.0215
CGGATTCC: 0.164
ATCTATTA: -0.0545
CGTTTGGA: -0.0926
CCCGTCGG: 0.377
CGACGCGA: 0.234
CCGTACCA: 0.161
AACGAAAC: 0.02
ATATCATC: 0.0476
AGTCACGG: 0.221
ATCCTTGA: -0.132
GCCGCGCC: 0.354
TTCGCGAA: 0.205
ACACACAT: -0.189
CAGTTCTC: 0.0323
